Measured values pooled from the literature.
Lines come from different studies, so protocols differ. ± marks the error that the study gave.
UniProt P21729, sequence (whole entry, looked up): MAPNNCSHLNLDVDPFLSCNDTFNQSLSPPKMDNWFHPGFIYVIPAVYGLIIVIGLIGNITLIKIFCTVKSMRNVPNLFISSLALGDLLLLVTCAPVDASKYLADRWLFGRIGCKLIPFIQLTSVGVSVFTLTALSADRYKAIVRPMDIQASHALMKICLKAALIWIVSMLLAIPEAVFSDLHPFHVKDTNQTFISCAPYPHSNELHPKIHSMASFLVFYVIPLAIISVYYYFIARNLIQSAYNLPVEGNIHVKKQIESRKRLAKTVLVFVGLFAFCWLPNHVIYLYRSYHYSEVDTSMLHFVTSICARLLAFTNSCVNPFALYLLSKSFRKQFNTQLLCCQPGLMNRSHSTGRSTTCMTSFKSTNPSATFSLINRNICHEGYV

Structure (SMILES) | tested on | assay | test system | setting | how to read | measurement | value
CCCCCCCC(=O)OC[C@H](NC(=O)[C@H](CO)NC(=O)CN)C(=O)N[C@@H](Cc1ccccc1)C(=O)N[C@@H](CC(C)C)C(=O)N[C@@H](CO)C(=O)N1CCC[C@H]1C(=O)N[C@@H](CCC(=O)O)C(=O)N[C@@H](Cc1cnc[nH]1)C(=O)N[C@@H](CCC(N)=O)C(=O)N[C@@H](CCCNC(=N)N)C(=O)N[C@H](C(=O)N[C@@H](CCC(N)=O)C(=O)N[C@@H](CCC(N)=O)C(=O)N[C@@H](CCCNC(=N)N)C(=O)N[C@@H](CCCCN)C(=O)N[C@@H](CCC(=O)O)C(=O)N[C@@H](CO)C(=O)N[C@@H](CCCCN)C(=O)N[C@@H](CCCCN)C(=O)N1CCC[C@H]1C(=O)N1CCC[C@H]1C(=O)N[C@@H](C)C(=O)N[C@@H](CCCCN)C(=O)N[C@@H](CC(C)C)C(=O)N[C@@H](CCC(N)=O)C(=O)N1CCC[C@H]1C(=O)N[C@@H](CCCNC(=N)N)C(=O)O)C(C)C | – | – | human, plasma | intravenous infusion, 5 µg/kg/h, 65 min infusion | – | dose-normalised Cmax | 3.92 ± 0.47
CC[C@@H](C)[C@@H](NC(=O)[C@@H](C)NC(=O)[C@@H](CCCCN)NC(=O)[C@@H](CC(C)C)NC(=O)[C@@H](C)NC(=O)[C@H](NC(=O)[C@@H](Cc1c[nH]cn1)NC(=O)[C@@H](CC(C)C)NC(=O)[C@H](NC(=O)[C@H](NC(=O)[C@@H](CCCCN)NC(=O)[C@@H](CCCCN)NC(=O)[C@@H](C)NC(=O)[C@@H](CO)NC(=O)[C@@H](CCCCN)NC(=O)[C@@H](Cc1ccccc1)NC(=O)[C@H](NC(=O)[C@@H](CCCCN)NC(=O)[C@@H](CC(C)C)NC(=O)[C@@H](Cc1ccccc1)NC(=O)[C@@H](CO)NC(=O)[C@@H](CCCCN)NC(=O)[C@@H](Cc1c[nH]c2ccccc12)NC(=O)[C@@H](CCCCN)NC(C)=O)[C@H](C)O)[C@H](C)O)C(C)C)[C@H](C)O)C(=O)N[C@H](CO)C(=O)N[C@H](CO)C(N)=O | – | circular dichroism | benign aqueous buffer | pH 7.0, 5 °C, at 222 nm | negative is more helical | mean residue molar ellipticity | 1150 deg cm2/dmol
CC(C)C[C@H](NC(=O)[C@H](CCCCN)NC(=O)[C@H](CCC(=O)O)NC(=O)[C@H](C)NC(=O)[C@@H](NC(=O)[C@H](CCCCN)NC(=O)[C@H](CC(=O)O)NC(=O)[C@H](Cc1ccc(O)cc1)NC(=O)[C@H](Cc1ccccc1)NC(=O)[C@H](C)NC(=O)[C@H](CCCCN)NC(=O)[C@H](CC(C)C)NC(=O)[C@H](Cc1c[nH]c2ccccc12)NC(=O)[C@@H](N)CC(=O)O)C(C)C)C(=O)N[C@@H](CCCCN)C(=O)N[C@@H](CCC(=O)O)C(=O)N[C@@H](C)C(=O)N[C@@H](Cc1ccccc1)C(=O)N1CCC[C@H]1C(=O)N[C@@H](CC(=O)O)C(=O)N[C@@H](Cc1c[nH]c2ccccc12)C(=O)N[C@@H](C)C(=O)N[C@@H](CCCCN)C(=O)N[C@@H](C)C(=O)N[C@@H](C)C(=O)N[C@@H](Cc1ccc(O)cc1)C(=O)N[C@@H](CC(=O)O)C(=O)N[C@@H](CCCCN)C(=O)N[C@@H](C)C(=O)N[C@@H](C)C(=O)N[C@@H](CCC(=O)O)C(=O)N[C@@H](CCCCN)C(=O)N[C@@H](C)C(=O)N[C@@H](CCCCN)C(=O)N[C@@H](CCC(=O)O)C(=O)N[C@@H](C)C(=O)N[C@@H](C)C(=O)O | – | LC-MS/MS | cynomolgus monkey, male, plasma | IV infusion, 75 mg/kg/dose, day 1, 30 min infusion | – | CL | 0.15 mL/min/kg
C[C@@](O)(C(F)F)[C@H](NC(=O)c1ccc(C#CC#CC2CC2)cc1)C(=O)NO | – | – | dog, plasma | intravenous, 100 mg/kg | – | half-life | 66 min
CCC(=O)N(C)c1ccc(Cl)c(Cl)c1 | Escherichia coli | Ames test | WP2 uvrA | 0.10 mg/plate, without S9 activation | – | revertants | 28 ± 11.2 revertants/plate
CC[C@@H]1C[C@]1(NC(=O)[C@@H]1C[C@@]2(CN1C(=O)[C@@H](NC(=O)[C@@H](NC(=O)[C@@H]1CCCCN1C(C)C)C1CCCCC1)C(C)(C)C)C(C)(C)C21CCC1)C(=O)NS(=O)(=O)N1CCCC1 | – | item: abdominal pain | healthy human | oral, 50 mg, added: ritonavir 100 mg | – | subjects with adverse event | 0%
CCCCCCCC(=O)NC[C@H](NC(=O)[C@H](CO)NC(=O)CN)C(=O)N[C@@H](Cc1ccccc1)C(=O)N[C@@H](CC(C)C)C(=O)N[C@@H](CO)C(=O)N1CCC[C@H]1C(=O)N[C@@H](CCC(=O)O)C(=O)N[C@@H](Cc1c[nH]cn1)C(=O)N[C@@H](CCC(N)=O)C(=O)N[C@@H](CCCNC(=N)N)C(=O)N[C@H](C(=O)N[C@@H](CCC(N)=O)C(=O)N[C@H](C(=O)N[C@@H](CCCNC(=N)N)C(=O)N1CCC[C@H]1C(=O)N1CCC[C@H]1C(=O)N[C@@H](Cc1c[nH]cn1)C(=O)N[C@@H](CCCCN)C(=O)N[C@@H](C)C(=O)N1CCC[C@H]1C(=O)N[C@@H](Cc1c[nH]cn1)C(=O)N[C@H](C(=O)N[C@H](C(=O)O)C(C)C)C(C)C)C(C)C)C(C)C | – | – | mouse, plasma | intraperitoneal, 1.2 mg/kg | – | half-life | 20.9 min
CSCC[C@@H]1NC(=O)[C@@H]2CSSC[C@H](NC(=O)[C@H](CO)NC(=O)[C@H](C)N)C(=O)N[C@@H](CCCNC(=N)N)C(=O)N[C@@H]([C@@H](C)O)C(=O)N3CCC[C@H]3C(=O)N[C@@H](CCCCN)C(=O)N[C@@H](CC(=O)O)C(=O)N[C@H]3CSSC[C@H](NC(=O)[C@H](CCCCN)NC(=O)[C@H](CCCNC(=N)N)NC(=O)[C@H](CC(N)=O)NC1=O)C(=O)N[C@@H](CCCCN)C(=O)N[C@H]1CSSC[C@H](NC(=O)[C@@H]4CCCN4C(=O)[C@H](CC(=O)O)NC(=O)[C@H](C)NC3=O)C(=O)N[C@@H](C)C(=O)N[C@@H](CCCCN)C(=O)N[C@@H](CCC(=O)O)C(=O)N[C@@H]([C@@H](C)O)C(=O)NCC(=O)N[C@@H](CSSC[C@@H](C(N)=O)NC(=O)[C@H](CCCNC(=N)N)NC(=O)[C@H](CC(N)=O)NC1=O)C(=O)N1CCC[C@H]1C(=O)N[C@@H](Cc1ccc(O)cc1)C(=O)NCC(=O)N[C@@H](CCCCN)C(=O)N2 | – | – | DA rat, pristane-induced arthritis, serum | subcutaneous, 0.1 mg/kg every other day, end of 21-day trial | – | LDH | 640 U/L
C[C@@H]1CC[C@H]2[C@@H](C)CO[C@@H]3O[C@@]4(C)CC[C@@H]1[C@]32OO4 | – | – | male Sprague-Dawley rat, plasma | intravenous, 5 mg/kg | – | C0 | 4370 ng/mL
COc1ccc(C)cc1NC(=O)OC1CC2CCCC(C1)N2Cc1ccc(CC[18F])cc1 (stereo not drawn) | – | – | BALB/c mice, EMT6 tumour, brain | 2 h | – | tissue uptake | 1.16 ± 0.09 %ID/g
COc1cc(-c2nc3ccccc3s2)cc(CN(Cc2ccccn2)Cc2ccccn2)c1O | – | Alamar Blue | Neuro2A, mouse | 2 µM, 40 h | – | viability | 72 ± 4%
CN[C@](C)(C[18F])C(=O)O | SK-OV-3 tumour model | – | host not given, lung | 2 h, tumour-bearing | – | tracer uptake | 1.2 %ID/g
COC(=O)C[C@](O)(CCCC(C)(C)OC(C)=O)C(=O)O[C@@H]1C(OC)=C[C@]23CCCN2CCc2cc4c(cc2[C@H]13)OCO4 | – | – | CD1 mouse, kidney | oral, 1 mg/kg, 24 h, below quantification limit 1.00 ng/mL | – | tissue concentration | not detected
COc1ccc(CNc2nc(N3CCC[C@H]3CO)ncc2C(=O)NN)cc1Cl | Salmonella typhimurium | – | TA100 | 1000 µg/plate, 48 h | – | revertant count | 122 ± 11
CCCNC(=O)[C@H](CC(C)C)NC(=O)[C@H](Cc1c[nH]cn1)NC(=O)CNC(=O)[C@@H](NC(=O)[C@H](C)NC(=O)[C@H](Cc1c[nH]c2ccccc12)NC(=O)[C@H](CCC(N)=O)NC(=O)[C@@H](Cc1ccccc1)NC(=O)CCCCCNC(=O)CN1CCN(CC(=O)O)CCN(CC(=O)O)CCN(CC(=O)O)CC1)C(C)C [indium-111 labelled] | Gastrin-releasing peptide receptor (Mus musculus, UniProt P21729) | biodistribution | CF-1 mice, heart | intravenous, 1 h, added: bombesin 100 µg, blocking | – | tissue uptake | 0.13 ± 0.02 %ID/g

Repeated from above:
Structure (SMILES) | tested on | assay | test system | setting | how to read | measurement | value
CC[C@@H]1C[C@]1(NC(=O)[C@@H]1C[C@@]2(CN1C(=O)[C@@H](NC(=O)[C@@H](NC(=O)[C@@H]1CCCCN1C(C)C)C1CCCCC1)C(C)(C)C)C(C)(C)C21CCC1)C(=O)NS(=O)(=O)N1CCCC1 | – | item: abdominal pain | healthy human | oral, 50 mg, added: ritonavir 100 mg | – | subjects with adverse event | 0%
